Published values from different studies.
Each numbered part is a random draw from the data of one study; scales do not carry over between parts.

Series 1
Target: Prothrombin, mature alpha-thrombin (F2, Homo sapiens, UniProt P00734)
Method: aptamer microarray, sandwich
Molecule type: DNA with 2'F-ANA
Sample: in vitro
Concentration: 200 nM
Setting: whole 15-mer aptamer, many near background
With: Cy3 exosite-II aptamer, 400 nM
Direction: higher = stronger binding
Sequence: GGTTGGTGTGGTTGG
Modification | mean fluorescence intensity
2'F-ANA at 2 4 5 6 11 | 57.3 a.u.
2'F-ANA at 2 3 4 5 6 7 8 11 13 14 | 49.6 a.u.
2'F-ANA at 2 3 5 9 11 12 14 15 | 53.6 a.u.
2'F-ANA at 1 2 3 6 7 8 9 11 13 14 15 | 68.9 a.u.
2'F-ANA at 2 3 4 5 6 7 8 9 10 11 12 13 14 | 51.7 a.u.
2'F-ANA at 1 3 7 9 10 11 13 14 15 | 61.8 a.u.
2'F-ANA at 2 5 6 8 9 12 13 | 110 a.u.

Series 2
Target: RING finger protein unkempt homolog, zinc fingers 1-6, GST-SBP tag (UNK, Homo sapiens, UniProt Q9C0B0, residues 30-357)
Method: RNA Bind-n-Seq
Molecule type: RNA
Sample: in vitro
Concentration: not given
Setting: RNA with constant flanks, human-mouse chimeric sites, ends assumed
Baseline: input RNA pool
Direction: higher = stronger binding
Constant ends, left off below: GGGAGUUCUACAGUCCGACGAUC … CAACAGAGGAUUGAGCAUCA
Construct (chain): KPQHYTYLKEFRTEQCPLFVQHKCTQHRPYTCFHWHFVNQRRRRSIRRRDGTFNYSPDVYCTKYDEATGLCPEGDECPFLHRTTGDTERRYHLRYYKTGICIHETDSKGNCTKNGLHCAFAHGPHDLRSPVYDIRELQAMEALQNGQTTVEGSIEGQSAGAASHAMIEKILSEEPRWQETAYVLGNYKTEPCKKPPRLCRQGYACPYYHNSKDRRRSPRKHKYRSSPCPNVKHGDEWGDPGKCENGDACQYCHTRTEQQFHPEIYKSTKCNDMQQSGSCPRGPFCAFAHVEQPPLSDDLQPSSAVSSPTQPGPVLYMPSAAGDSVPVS
Sequence | bound/input enrichment
UCCCAAAUCCAGCAGCUAGAAGGAGCCUUGAGACAAACACUCCACACACAGGGAAGGCGAUAACAUUGUACAUUGGUUUACAUUUUUUCCCCCUGUGUUUUCUAGGGUCCUAGUGCUUGC | 0.222 ratio
AGCACAACACCAGCUAAGCUAAGAAAUCCUUGUACAAGUGAACAAAACUGCACCAGCCCAUUUAGCUACAAAAAUGUGCUUAGUCUUACUAAUAAAGGAGAGUUUUUCAAUGAACUUGUU | 0.868 ratio
GCGGCAGAAUCAUGGAGGACAUAAUGCAGCUCCCCAAGUCGCGCAUCAACGCCAGCAUGUUACCACAGUAUAUCGACCGGCCCGUGUGCUUCGUGGGGAGGCUGGAAAAGAUUCAUCCCA | 0.0776 ratio
GAUCCACAGUGGUCUGAGGAGCAACUCAUUGCUGCAAAAUUCUGUUUUGCUGGACUUGUUAUAGGGCAGACUGAAGUGGACAUCAUGAGUCAUGCCACACAAGCUAUUUUUGAAAUUCUG | 0.195 ratio
GAUCCACAGUGGUCUGAGGAACAGCUGAUUGCUGCAAAAUUCUGUUUUGCUGGCCUUGUUAUAGGGCAGACUGAAGUGGACAUCAUGAGUCAUGCCACACAGGCUAUUUUUGAAAUUCUG | 0.216 ratio
UACUCAACUUUCUUUCCACAUUUUGAAUUCCAAGACAUUAUUCCUCCAGAUGACUUCCUAACGAGUGAUGAAGAAGUAGAUUUGGUUUUAUUUGGAACUAUGAGAGGACAAGUUGUUGGA | 0.278 ratio
GAAUCCUACUCAGGCGGUCCCACAACAACCAAGCUCACAGCAGCAGCAUCUUAGUCACAGUAGGGUAGCUUUAGGGCUCUGUGGCCAGGGUUUUAUUCACAUGCAGGUUUGGAAAAUGUA | 0.41 ratio

Series 3
Target: Histone acetyltransferase KAT6A, winged helix 1, GST fusion (KAT6A, Homo sapiens, UniProt Q92794, residues 1-85)
Method: protein binding microarray
Molecule type: double-stranded DNA, one strand shown
Sample: in vitro
Concentration: not given
Setting: 8-mer, flanks averaged, mean of 2 arrays, mostly near background
Baseline: not given
Direction: higher = stronger binding
Target sequence (chain): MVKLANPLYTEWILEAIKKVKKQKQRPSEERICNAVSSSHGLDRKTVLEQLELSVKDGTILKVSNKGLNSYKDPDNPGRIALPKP
Sequence | E-score
AGAGTCAA | -0.0686
AGTTAGGA | -0.151
CTTTAATA | 0.0244
CCGGGATA | 0.178
ATTGATCG | 0.0167
CAGGGTCA | -0.0962
ATGCCGCG | 0.428

Mixed results
Molecule | target | test | test system | setting | scale | quantity | value
PhoQ, residues 284 288 289 292 302 303 AGGLSV | PhoP, residues 12 14 15 18 19 YHFSH (Escherichia coli, UniProt P23836) | Sort-seq, item: YFP reporter | E. coli | PhoQ-PhoP variant library, with: 10 µM Mg2+ | baseline: high Mg2+ state, higher = stronger signaling | fold induction | 2.44

For quick reference, copied from above (series 1):
Modification | mean fluorescence intensity
2'F-ANA at 2 3 4 5 6 7 8 9 10 11 12 13 14 | 51.7 a.u.
2'F-ANA at 2 5 6 8 9 12 13 | 110 a.u.
